Experimental data from different studies.
Lines come from different studies, so protocols differ.
ihfA/ihfB 1-98; 1-95: ihfA/ihfB 1-98; 1-95 (Aggregatibacter actinomycetemcomitans)
WT1: WT1 323-438 (Homo sapiens, UniProt P19544)
Chain of UniProt P19544 (whole entry, looked up): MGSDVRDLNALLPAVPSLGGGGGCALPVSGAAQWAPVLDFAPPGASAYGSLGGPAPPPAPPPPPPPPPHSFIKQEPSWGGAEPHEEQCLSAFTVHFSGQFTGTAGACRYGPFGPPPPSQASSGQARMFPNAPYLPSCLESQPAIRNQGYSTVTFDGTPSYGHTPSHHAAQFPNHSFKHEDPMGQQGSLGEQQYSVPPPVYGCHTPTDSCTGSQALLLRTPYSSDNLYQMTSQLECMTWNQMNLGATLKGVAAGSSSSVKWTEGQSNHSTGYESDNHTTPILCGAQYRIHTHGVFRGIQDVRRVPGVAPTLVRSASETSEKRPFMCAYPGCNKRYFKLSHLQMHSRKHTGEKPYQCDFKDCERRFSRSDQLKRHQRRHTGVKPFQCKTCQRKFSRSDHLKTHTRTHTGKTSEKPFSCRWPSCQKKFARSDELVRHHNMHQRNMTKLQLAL
WRKY40 full length assumed: WRKY40 full length assumed (Arabidopsis thaliana, UniProt Q9SAH7)
Chain of UniProt Q9SAH7 (whole entry, looked up): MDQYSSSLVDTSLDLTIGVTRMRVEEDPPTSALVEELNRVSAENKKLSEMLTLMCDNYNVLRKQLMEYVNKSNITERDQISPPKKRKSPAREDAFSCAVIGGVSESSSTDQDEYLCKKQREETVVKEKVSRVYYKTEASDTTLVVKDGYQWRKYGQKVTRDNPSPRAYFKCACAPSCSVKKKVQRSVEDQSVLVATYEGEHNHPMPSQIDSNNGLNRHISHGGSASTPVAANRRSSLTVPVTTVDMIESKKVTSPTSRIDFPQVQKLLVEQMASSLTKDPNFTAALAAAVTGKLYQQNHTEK
WRKY23: WRKY23 (Oryza sativa, UniProt Q7E0X1)
T1: ihfA/ihfB 1-98; 1-95 (Aggregatibacter actinomycetemcomitans); chain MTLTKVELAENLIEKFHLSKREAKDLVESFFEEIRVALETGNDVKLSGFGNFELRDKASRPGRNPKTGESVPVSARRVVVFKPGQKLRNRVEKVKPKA; chain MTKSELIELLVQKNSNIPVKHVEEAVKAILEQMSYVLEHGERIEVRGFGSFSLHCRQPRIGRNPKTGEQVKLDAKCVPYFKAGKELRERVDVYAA
Chain of UniProt P07676 (whole entry, unmodified, looked up): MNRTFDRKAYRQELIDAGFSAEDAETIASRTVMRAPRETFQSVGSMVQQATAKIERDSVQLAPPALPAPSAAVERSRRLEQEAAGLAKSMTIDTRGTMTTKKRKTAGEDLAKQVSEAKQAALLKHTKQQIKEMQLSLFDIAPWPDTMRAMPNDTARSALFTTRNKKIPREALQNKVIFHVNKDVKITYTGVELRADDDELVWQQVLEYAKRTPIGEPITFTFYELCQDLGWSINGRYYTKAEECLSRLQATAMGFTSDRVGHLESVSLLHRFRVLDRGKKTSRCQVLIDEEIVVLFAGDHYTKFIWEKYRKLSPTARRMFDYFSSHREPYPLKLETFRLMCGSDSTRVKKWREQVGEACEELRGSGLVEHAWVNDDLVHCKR
Chain of UniProt P19838 (whole entry, looked up): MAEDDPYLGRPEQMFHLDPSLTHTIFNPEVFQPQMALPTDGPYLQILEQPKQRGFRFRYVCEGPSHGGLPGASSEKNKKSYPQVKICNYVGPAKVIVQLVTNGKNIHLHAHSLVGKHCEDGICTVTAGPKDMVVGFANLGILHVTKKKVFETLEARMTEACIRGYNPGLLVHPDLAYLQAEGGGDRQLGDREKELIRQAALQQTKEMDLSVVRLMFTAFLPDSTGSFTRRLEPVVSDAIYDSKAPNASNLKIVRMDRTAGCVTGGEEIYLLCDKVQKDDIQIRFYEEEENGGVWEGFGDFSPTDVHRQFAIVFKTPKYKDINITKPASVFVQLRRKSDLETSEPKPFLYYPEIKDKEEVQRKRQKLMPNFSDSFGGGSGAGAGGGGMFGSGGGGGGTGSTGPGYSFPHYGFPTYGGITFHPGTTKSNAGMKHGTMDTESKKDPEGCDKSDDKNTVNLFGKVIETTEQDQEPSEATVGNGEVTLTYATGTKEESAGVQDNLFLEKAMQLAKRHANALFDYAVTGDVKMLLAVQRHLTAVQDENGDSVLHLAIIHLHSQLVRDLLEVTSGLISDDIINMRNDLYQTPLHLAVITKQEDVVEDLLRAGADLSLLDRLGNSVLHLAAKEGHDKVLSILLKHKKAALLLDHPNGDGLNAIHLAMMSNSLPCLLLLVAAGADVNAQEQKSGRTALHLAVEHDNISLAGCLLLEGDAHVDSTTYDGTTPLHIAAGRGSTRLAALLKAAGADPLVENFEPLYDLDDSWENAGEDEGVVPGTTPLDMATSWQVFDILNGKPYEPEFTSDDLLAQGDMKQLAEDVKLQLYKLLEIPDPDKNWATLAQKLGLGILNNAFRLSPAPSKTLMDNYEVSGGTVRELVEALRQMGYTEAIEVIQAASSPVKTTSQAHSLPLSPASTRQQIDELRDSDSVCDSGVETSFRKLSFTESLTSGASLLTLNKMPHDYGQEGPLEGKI
Chain of UniProt Q9C5T4 (whole entry, looked up): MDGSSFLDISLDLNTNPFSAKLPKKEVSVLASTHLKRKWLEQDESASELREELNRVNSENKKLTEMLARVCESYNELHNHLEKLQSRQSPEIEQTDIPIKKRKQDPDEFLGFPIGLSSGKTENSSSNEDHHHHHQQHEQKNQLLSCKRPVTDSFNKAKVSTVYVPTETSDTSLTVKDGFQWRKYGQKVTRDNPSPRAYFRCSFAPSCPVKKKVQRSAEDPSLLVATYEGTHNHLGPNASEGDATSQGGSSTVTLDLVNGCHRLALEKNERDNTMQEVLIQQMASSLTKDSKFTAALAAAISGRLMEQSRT
Chain of UniProt O95905 (whole entry, looked up): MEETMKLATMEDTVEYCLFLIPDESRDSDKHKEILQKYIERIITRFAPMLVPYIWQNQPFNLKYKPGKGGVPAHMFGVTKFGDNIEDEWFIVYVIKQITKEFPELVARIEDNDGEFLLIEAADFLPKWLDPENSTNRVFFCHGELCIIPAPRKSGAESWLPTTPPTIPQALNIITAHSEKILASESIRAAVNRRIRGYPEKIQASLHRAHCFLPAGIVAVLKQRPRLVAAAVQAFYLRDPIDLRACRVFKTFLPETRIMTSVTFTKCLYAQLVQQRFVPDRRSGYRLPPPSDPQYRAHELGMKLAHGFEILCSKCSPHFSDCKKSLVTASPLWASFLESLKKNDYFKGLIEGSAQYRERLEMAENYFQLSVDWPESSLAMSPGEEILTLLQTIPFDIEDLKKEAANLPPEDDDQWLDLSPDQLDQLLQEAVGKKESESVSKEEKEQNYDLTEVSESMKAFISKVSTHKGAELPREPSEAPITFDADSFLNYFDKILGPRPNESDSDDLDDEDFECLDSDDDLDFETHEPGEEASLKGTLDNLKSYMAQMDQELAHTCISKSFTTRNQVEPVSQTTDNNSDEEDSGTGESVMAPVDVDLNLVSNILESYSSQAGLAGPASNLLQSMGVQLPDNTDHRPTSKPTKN
Chain of UniProt Q43349 (whole entry, looked up): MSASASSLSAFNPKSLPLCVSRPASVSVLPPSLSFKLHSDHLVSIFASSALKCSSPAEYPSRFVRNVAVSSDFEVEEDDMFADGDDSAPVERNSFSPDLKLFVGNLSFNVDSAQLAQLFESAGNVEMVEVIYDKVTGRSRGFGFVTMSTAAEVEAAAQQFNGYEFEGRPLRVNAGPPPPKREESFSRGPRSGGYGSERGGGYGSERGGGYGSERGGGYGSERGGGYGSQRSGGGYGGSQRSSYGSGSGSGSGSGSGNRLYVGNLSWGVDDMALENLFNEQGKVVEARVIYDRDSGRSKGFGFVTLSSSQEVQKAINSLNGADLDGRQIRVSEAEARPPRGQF
Chain of UniProt Q9NZI8 (whole entry, looked up): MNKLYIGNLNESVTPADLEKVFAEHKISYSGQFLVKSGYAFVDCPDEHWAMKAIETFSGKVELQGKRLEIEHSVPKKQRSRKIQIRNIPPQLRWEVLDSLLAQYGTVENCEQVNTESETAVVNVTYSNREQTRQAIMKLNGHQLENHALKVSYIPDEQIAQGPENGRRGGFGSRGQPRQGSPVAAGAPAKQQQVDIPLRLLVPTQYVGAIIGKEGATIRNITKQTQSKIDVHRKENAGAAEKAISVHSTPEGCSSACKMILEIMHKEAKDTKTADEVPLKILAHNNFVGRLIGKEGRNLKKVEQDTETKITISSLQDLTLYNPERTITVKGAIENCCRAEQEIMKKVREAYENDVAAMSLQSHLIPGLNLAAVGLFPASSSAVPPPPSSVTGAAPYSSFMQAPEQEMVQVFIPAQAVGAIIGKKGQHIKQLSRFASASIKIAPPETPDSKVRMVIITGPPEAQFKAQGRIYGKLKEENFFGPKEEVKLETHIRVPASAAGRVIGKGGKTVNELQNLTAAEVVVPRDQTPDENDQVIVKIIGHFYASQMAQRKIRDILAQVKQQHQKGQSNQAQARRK
Chain of UniProt Q93VB5 (whole entry, looked up): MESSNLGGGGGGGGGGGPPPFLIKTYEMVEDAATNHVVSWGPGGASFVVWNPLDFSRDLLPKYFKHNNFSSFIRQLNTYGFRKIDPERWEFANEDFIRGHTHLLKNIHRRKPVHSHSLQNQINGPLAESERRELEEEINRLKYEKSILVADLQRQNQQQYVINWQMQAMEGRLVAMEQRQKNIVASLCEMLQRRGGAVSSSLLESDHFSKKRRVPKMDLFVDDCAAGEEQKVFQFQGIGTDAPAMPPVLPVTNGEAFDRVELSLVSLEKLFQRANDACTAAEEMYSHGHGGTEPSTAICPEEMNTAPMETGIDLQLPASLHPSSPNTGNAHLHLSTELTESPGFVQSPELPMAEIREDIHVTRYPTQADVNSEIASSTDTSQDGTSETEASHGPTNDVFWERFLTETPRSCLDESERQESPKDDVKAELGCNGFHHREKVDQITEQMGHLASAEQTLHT
Chain of UniProt P17676 (whole entry, looked up): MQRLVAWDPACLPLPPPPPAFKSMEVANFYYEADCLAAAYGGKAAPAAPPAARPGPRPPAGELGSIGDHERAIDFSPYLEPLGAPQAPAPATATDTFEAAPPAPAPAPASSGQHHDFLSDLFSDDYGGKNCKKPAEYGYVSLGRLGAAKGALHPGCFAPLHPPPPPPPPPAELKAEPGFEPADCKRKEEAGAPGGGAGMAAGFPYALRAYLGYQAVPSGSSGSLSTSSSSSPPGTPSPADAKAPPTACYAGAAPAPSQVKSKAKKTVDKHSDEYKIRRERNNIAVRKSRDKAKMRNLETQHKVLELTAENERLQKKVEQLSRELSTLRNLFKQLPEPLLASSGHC

Sequence	target	test	system	setting	binding
CGGTTTTTCCCCTGCGGGTCGTATTGGAAAGCCATTGAAAAGCTGATGGATAACTCTGCGAGTTACCCACGAGCTTTCCA (dsDNA)	T1, ihfA/ihfB 1-98; 1-95 (Aggregatibacter actinomycetemcomitans)	EMSA	double-stranded DNA, one strand shown	–	binds
RNA 1 GCGUCUUUACGGUGCUUAAAACAAAACAAAACAAAACAAAA / RNA 2 AGCACCGUAAAGACGC (dsRNA; 3' overhang)	DDX3X 132-662 (Homo sapiens, UniProt O00571)	mass photometry	double-stranded RNA	–	binds
DNA 1 ATACCAGCTTATTCAATT / DNA 2 ATTGCTCCTCAGCAATTGAATAAGCT (dsDNA; 13 bp duplex, 5' overhangs, 5'-NH2)	MUC16 1-14451 (Homo sapiens, UniProt Q8WXI7)	magnetic bead strand displacement	double-stranded DNA	–	no binding
ACCAAGCGGGAAGCGGAGCCGCCGCCGCCGCCG (dsDNA; blunt)	WT1	EMSA	double-stranded DNA, one strand shown	–	no binding
GGGGTTCGACAGAACCTA (dsDNA)	Auxin response factor 1-610 (Capsicum annuum, UniProt A0A1U8F1G4)	MST	double-stranded DNA, one strand shown	–	binds
CCAATGTGTAACAAGTAACTTATGACAACACAAATTTCTTCTTTGGTAGAAAACAAACGGGTAAGTAAAAAGAAAAGAAAAAAAGAAGTGAGTGAGAAGAGAGTGTAAGTATAAATAAAAGAAGCACCGCCCTAATCGACCATTCACAACGATGACATTCAAACACTCTTCAG (dsDNA)	WRKY40 full length assumed	EMSA	double-stranded DNA, one strand shown	–	binds
CAGAGGATGTGGCTTC (dsDNA)	FLI1 276-375 (Homo sapiens, UniProt Q01543)	X-ray crystallography	double-stranded DNA, one strand shown	–	binds
DNA 1 GCTTAGCTTGGAATCGTATCATGTACACTCGTGTGCCGTGTAGACCGTGCC / DNA 2 TGTACATGATACGATTCCAAGCTAAGC / DNA 3 GGCACGGTCTACACGGCACACGAG (dsDNA; nicked duplex, blunt ends, 5'-phosphate)	PARP1 1-1014 (Homo sapiens, UniProt P09874)	fluorescence microscopy	double-stranded DNA	condensation, without NAD+	binds
CTGAAGTTTGGTCAAAATAATACGATGAATTTAATATATAAGAGACAAAATTGTTATTGTCGTTTAGGTGGTATCCATATTTCAATATAGTTTGTGTGAATACAGATATAAAAATGGTTATTGTTGTGTATATGATGCAGTTG (dsDNA)	WRKY18 full length assumed (Arabidopsis thaliana, UniProt Q9C5T4)	EMSA	double-stranded DNA, one strand shown	–	binds
GCAGCCCTGGTTAAAAACAAGGTTTATAAATATTGGTTTAAAAGCAGGTTAAAAGACAGGTTAGCGGTGG (ssDNA)	trfA 98-382 G254D/S267L/R327E (Escherichia coli, UniProt P07676)	SPR	single-stranded DNA	–	no binding
ACCAAGCGGGATGCGGAGCCGCCGCCGCCGCCG (dsDNA; blunt)	WT1	EMSA	double-stranded DNA, one strand shown	–	binds
GGTGAAGATCTCAATTACACAAAAATGAATGCTTTAAAAGGATCATTTAA (dsDNA)	GATA15 full length assumed (Oryza sativa, UniProt Q6L5E5)	EMSA	double-stranded DNA, one strand shown	–	binds
GCAGTGAAAAGGGGGTGTGTCAGGATGC (dsDNA)	KLF10 full length assumed (Homo sapiens, UniProt Q13118)	EMSA	double-stranded DNA, one strand shown	–	binds
CGATGAGAATGGTTCCAAGGCCATGTACTT (dsDNA)	WOX11 full length assumed (Oryza sativa, UniProt Q0D3I7)	EMSA	double-stranded DNA, one strand shown	–	no binding
AAACGTCCGTGGAAAACC (dsDNA)	PDR1 1-207 (Saccharomyces cerevisiae, UniProt P12383)	competition	double-stranded DNA, one strand shown	–	binds
CGCCATGCTGATCCGTGTGGTGTGTGTGGG (ssDNA (Saccharomyces cerevisiae))	Rfa1/Rfa2/Rfa3 (Saccharomyces cerevisiae)	BLI	single-stranded DNA	–	binds
TTAGGAGGAGAAGGTTCCAAATCCTT (dsDNA)	HSFA4D 1-459 (Oryza sativa, UniProt Q93VB5)	EMSA	double-stranded DNA, one strand shown	–	binds
TGTTTT (ssDNA)	CP29A 97-176 (Arabidopsis thaliana, UniProt Q43349)	NMR titration	single-stranded DNA	–	binds
DNA 1 ATTCTTAAGAAAGACG / DNA 2 TCGTCTTTCTTAAGAA (dsDNA; 5' one-nucleotide overhang)	CEBPB 257-336 (Homo sapiens, UniProt P17676)	X-ray crystallography	double-stranded DNA	–	binds
ACAAGAACAUCAAAGUCGAAGAACCUUCCG (ssRNA)	IGF2BP1 1-577 (Homo sapiens, UniProt Q9NZI8)	pull-down	RNA	–	binds
GCTGTCACTTACTAACTGTCT (dsDNA)	Auxin response factor 1-610 (Capsicum annuum, UniProt A0A1U8F1G4)	MST	double-stranded DNA, one strand shown	–	binds
ACCAAGCGGGATGCGGTGCCGCCGCCGCCGCCG (dsDNA; blunt)	WT1	EMSA	double-stranded DNA, one strand shown	–	no binding
CTCCGTTTCGTGCTACGGTTAGAAAGGCGAAAGCCCCAAGAAATACAAGCACACCTGATAAGCGAGATTTAAGGATAACAGC (dsDNA)	T1, ihfA/ihfB 1-98; 1-95 (Aggregatibacter actinomycetemcomitans)	EMSA	double-stranded DNA, one strand shown	–	binds
TCAGTTGGCAGGTTGGCAGTAATTTTGACGAAATTCGTTGAAGAATGATA (dsDNA)	WRKY23	EMSA	double-stranded DNA, one strand shown	–	binds

Sequence	target	test	system	setting	binding
CACAAGCACCTCTCTCTCTTCATTAAACAAAAAAAACATAAGCAAAGTTGTATTGAAGTGT (dsDNA)	Protein BZR1 homolog 1-313 (Triticum aestivum, UniProt A0A3B6AUH8)	EMSA	double-stranded DNA, one strand shown	–	no binding
ACAGGGGTGTGGGGACAGGGGTGTGGGG (G-quadruplex DNA (Homo sapiens); intramolecular G4)	IGF1 49-118 (Homo sapiens, UniProt P05019)	SPR	folded DNA	–	no binding
DNA 1 TATAAGGGATTTTGCCGATTTCGGCCTATTGGTTAAAAAATGAGCTGATTTAACAAAAATTTAACGCGAATTTTAACAAAATATTAACGCTTACAATTTA / DNA 2 GACGCTGCCGAATTCTGGCTTGCTAGGACATCTTTGCCCACGTTGACCCGAATCAGCTCATTTTTTAACCAATAGGCCGAAATCGGCAAAATCCCTTATA (dsDNA; fork; unpaired arms)	protein full length assumed (Mycosarcoma maydis, UniProt Q8NJ74)	EMSA	–	–	binds
AATTACTTAGAACTCTCACATTTAACCACGTCATGATCATATCAACGGTGTTATCCAT (dsDNA)	BZIP12 full length assumed (Oryza sativa, UniProt Q0JHF1)	EMSA	double-stranded DNA, one strand shown	–	binds
TTTCTTGGTCCCTGCATGCACGCATGCACTTGGGTCCGGG (dsDNA)	TaB3 1-272 (Triticum aestivum, UniProt A0A3B6ITW4)	EMSA	double-stranded DNA, one strand shown	–	binds
TTGGGCGAGCCGCAAGTTGTGTGGGGGAATTGATTG (dsDNA)	NAC067 1-276 (Oryza sativa, UniProt Q7EZT1)	EMSA	double-stranded DNA, one strand shown	–	binds
AAATTTGAACCTCTGTCATTGTACAGAAAAATCGTAATAACCC (dsDNA)	EIN3 1-628 (Arabidopsis thaliana, UniProt O24606)	EMSA	double-stranded DNA, one strand shown	–	binds
TATCGCTTTCTTCTCCCGTGACATCATTGTCGAGGTTTATT (dsDNA)	WRKY70 1-294 (Arabidopsis thaliana, UniProt Q9LY00)	EMSA	double-stranded DNA, one strand shown	–	binds
CGTGCAGTACGCCAACCTTTCTCATGCGCTGCCCCTCTTA (ssDNA; 5' thiol)	TNNI3 2-210 (Homo sapiens, UniProt P19429)	strand displacement by complementary DNA, DPV	single-stranded DNA	electrochemical aptasensor	binds
GCAGCUCGGGGAUCAUGGCCCACUGAACCCCCAAGCGC (structured RNA)	NFKB1 41-249 (Homo sapiens, UniProt P19838)	NMR	folded RNA	NaCl 50 mM	binds
CTTATTTCTTCTTCAACACGGTTTAA (dsDNA)	SRM1 1-298 (Arabidopsis thaliana, UniProt Q9FNN6)	EMSA	double-stranded DNA, one strand shown	–	no binding
CAAATTAATCTAAGTCTGGAGCCGCCGGGATGATGAGACTTG (dsDNA)	AP2/ERF domain-containing protein (Vitis vinifera, UniProt A0A0F6T258)	EMSA	double-stranded DNA, one strand shown	–	binds
CGTTTGTCGCTGTCACGATGTGGACCGTTCTTCTTTATTTTCACGTGGACCGACTTAATTACCTTCTTTCATTCTTGTTATTTCAATATTTTTTACGTCATTTAAACTCCACTTTACCAAAATAATTTATTTCATTCTTTGAGAGCATCAATTATCAAATAATTCAATTGTCTTTTTTCGTGATAGTTGAATAAGGGAC (dsDNA)	WRKY40 full length assumed	EMSA	double-stranded DNA, one strand shown	–	binds
TTATATACTCTGATTCATTGTACCTGACGTTGCTGCTTTGTC (dsDNA)	NOR full length assumed (Solanum lycopersicum, UniProt A0A3Q7J5X6)	EMSA	double-stranded DNA, one strand shown	–	binds
AUACUCUGGUUUCUCUUCAGAUCGCAUAAAUCUUUCGCCUUUUACUAAAGUUUCCGUGGAGAGGAACAACUCUGAGUCUUAACCCAAUUUUUUGAGGCCUUGCUUUGGCAAGGCUA (structured RNA)	ECD 1-644 (Homo sapiens, UniProt O95905)	EMSA	folded RNA	–	binds
AAGAU (ssRNA)	SART3 697-786 (Homo sapiens, UniProt Q15020)	ITC	RNA	–	no binding
CAGCCAACTAAACTA (dsDNA)	tnsC 1-503 A225V (Escherichia coli, UniProt P05846)	EMSA	double-stranded DNA, one strand shown	with: ATP 0.33 mM	binds
GTTTTGGAATGTTGCGTTGCATGACGTGGAAACATAGTACATGGATTTGGAT (dsDNA)	O2 full length assumed (Zea mays, UniProt P12959)	EMSA	double-stranded DNA, one strand shown	–	binds
GTTGAATGTCACCTAGCTAGCACGTGACCCGCCTTTTCCCCGCACG (dsDNA)	Protein BZR1 homolog 1-304 (Oryza sativa, UniProt A0A0P0UYT3)	EMSA	double-stranded DNA, one strand shown	–	binds
GTGAGATTCAAGTTCTCTCACCGACAACTAACTGATTTTGAAGGCA (dsDNA)	Auxin response factor 1-896 (Populus tomentosa, UniProt A0A8X8DKC4)	EMSA	double-stranded DNA, one strand shown	–	binds
AGCGTAGCACTGGGCT (dsDNA)	protein full length assumed K369A (Bacillus pumilus, UniProt A3FMN7)	EMSA	double-stranded DNA, one strand shown	–	no binding
GATCATGCAGGACAGTCGGATCGCAACCTGATTTACTGTGTCATATAGTACGTGATTCAG (ssDNA)	Dda helicase 1-439 (bacteriophage T4, UniProt P32270)	EMSA	single-stranded DNA	no ATP, with: Mg2+ 10 mM	binds
TCAGTTGGCAGGTTGGCAGTAATTTTGACGAAATTCGTTGCAGAATGATA (dsDNA)	WRKY23	EMSA	double-stranded DNA, one strand shown	–	binds

A few entries again:
Sequence	target	test	system	setting	binding
DNA 1 ATTCTTAAGAAAGACG / DNA 2 TCGTCTTTCTTAAGAA (dsDNA; 5' one-nucleotide overhang)	CEBPB 257-336 (Homo sapiens, UniProt P17676)	X-ray crystallography	double-stranded DNA	–	binds
ACAAGAACAUCAAAGUCGAAGAACCUUCCG (ssRNA)	IGF2BP1 1-577 (Homo sapiens, UniProt Q9NZI8)	pull-down	RNA	–	binds
GCTGTCACTTACTAACTGTCT (dsDNA)	Auxin response factor 1-610 (Capsicum annuum, UniProt A0A1U8F1G4)	MST	double-stranded DNA, one strand shown	–	binds
ACCAAGCGGGATGCGGTGCCGCCGCCGCCGCCG (dsDNA; blunt)	WT1	EMSA	double-stranded DNA, one strand shown	–	no binding
CTCCGTTTCGTGCTACGGTTAGAAAGGCGAAAGCCCCAAGAAATACAAGCACACCTGATAAGCGAGATTTAAGGATAACAGC (dsDNA)	T1, ihfA/ihfB 1-98; 1-95 (Aggregatibacter actinomycetemcomitans)	EMSA	double-stranded DNA, one strand shown	–	binds
TCAGTTGGCAGGTTGGCAGTAATTTTGACGAAATTCGTTGAAGAATGATA (dsDNA)	WRKY23	EMSA	double-stranded DNA, one strand shown	–	binds
